Measured values pooled from the literature.
Each line is one published result; not all experiments were run side by side. Several values in a cell are separate wells, animals, samples, runs or records. ± marks the error that the study gave.

Compound	target	assay	test system	conditions	how to read	endpoint	value
CCS(=O)(=O)c1nc(C2CC2)cc(C(F)(F)F)n1	Exportin-1 (XPO1, Homo sapiens, UniProt O14980)	nuclear export, high content imaging	HeLa Kyoto reporter	0.05 µM, 2 h	–	cells with nuclear reporter	3.13% and 2.18% and 1.78%
CCOC(=O)c1c(CSc2ccccc2)n(C)c2cc(Br)c(O)c(CN(C)C)c12.Cl	Nuclear receptor subfamily 2 group C member 2, ligand-binding domain (Homo sapiens, UniProt P49116)	SPR imaging	–	600 nM	–	koff	1.16e-07 s⁻¹
Nc1nc2c(ncn2[C@@H]2O[C@H](COP(=O)(O)O)[C@@H](O)[C@H]2O)c(=O)[nH]1	GUK1 (Homo sapiens, UniProt Q16774)	enzyme activity, NADH-coupled	–	500 µM, together with: NaCl 10 mM	–	reaction velocity	0.0777 µM/s and 0.0885 µM/s and 0.0838 µM/s
Nc1ccc(C(=O)O)cc1	BEST1, with wild-type BEST1 (Homo sapiens, UniProt O76090, Q293K)	ion current, whole-cell patch clamp	HEK293 co-expressing mutant and wild-type	concentration not given, voltage -20 mV	–	current density	-0.97 pA/pF and -3.54 pA/pF and -2.39 pA/pF and -2.37 pA/pF and -7.73 pA/pF and -2.99 pA/pF
COC(=O)c1ccccc1SC1=NS(=O)(=O)c2ccccc21	PKLR (Homo sapiens, UniProt P30613)	enzyme activity, activator, ADP and PEP titration	–	0.5 mM, apparent Km, together with: PEP or ADP substrate	relative to: DMSO	Km decrease	~30%
O=C(COP(=O)(O)O)[C@@H](O)[C@H](O)[C@H](O)COP(=O)(O)O	Large ribosomal subunit protein uL30 (Homo sapiens, UniProt P18124)	thermal proteome profiling, item: RPL7	HepG2 cell lysate	concentration not given, 57 over 37 °C, mean	relative to: compound over control	thermal stability ratio	0.692
Cc1cccc(N2CC(C(=O)O)CC2=O)c1 (stereo not drawn)	YTH domain-containing protein 1 (Homo sapiens, UniProt Q96MU7)	binding, affinity selection mass spectrometry	–	–	relative to: other proteins in batch	log fold enrichment	-0.102
Cc1ncccc1OC[C@@H]1CN(CCN2CCc3ccccc32)CCO1	DRD5 (Homo sapiens, UniProt P21918)	radioligand binding	–	concentration not given, together with: [3H]SCH23390	–	inhibition	7.7%
NCCCC(=O)O	SLC6A6 (Homo sapiens, UniProt P31641, G62A)	binding, microscale thermophoresis	–	244 nM, room temperature, together with: 50 nM labelled protein	higher = more binding	normalised MST signal	-0.0805
CCN1CCC[C@H]1CNC(=O)c1c(O)c(Cl)cc(Cl)c1OC	HCAR2 (Homo sapiens, UniProt Q8TDS4)	β-arrestin recruitment, TANGO luminescence, item: GPR109A	–	concentration not given	relative to: basal luminescence	log2 fold change	0.021
CC[C@@H]1[C@H](F)C(=O)N[C@@H]1COc1nccc2cc(C(N)=O)c(OC)cc12	CDK14 (Homo sapiens, UniProt O94921)	ATP probe binding, KiNativ profiling, item: Lys1 probe site	THP-1 cell lysate	0.04 mM	–	inhibition	2.9%
Nc1ncnc2c1ncn2[C@@H]1O[C@H](COP(=O)(O)CP(=O)(O)OP(=O)(O)O)[C@@H](O)[C@H]1O	P2X purinoceptor 1 (P2RX1, Homo sapiens, UniProt P51575, R139A)	calcium influx	–	3.16 nM	relative to: ionomycin response	calcium influx	0%
O=C1CSC(=S)N1NC(=S)SSC(=S)NN1C(=O)CSC1=S	PTPN22 (Homo sapiens, UniProt Q9Y2R2)	inhibitor, phospho-flow cytometry	–	25 µM, together with: TCR stimulation	relative to: DMSO	positive cells	12.5%
CC[C@H](C)[C@@H]1NC(=O)[C@H](CCCNC(=N)N)NC(=O)[C@@H]2CCCN2C(=O)[C@H](Cc2ccccc2)NC(=O)[C@H]([C@@H](C)O)NC(=O)CNC(=O)[C@H](CC(C)C)NC(=O)[C@@H]2CCCN2C(=O)[C@H]([C@@H](C)O)NC(=O)[C@H](Cc2c[nH]c3ccccc23)NC(=O)[C@H](Cc2ccc(O)cc2)NC(=O)[C@H]([C@@H](C)CC)NC(=O)[C@H]([C@@H](C)O)NC(=O)[C@H]([C@@H](C)O)NC(=O)[C@@H](Cc2ccc(O)cc2)NC(=O)CSC[C@@H](C(N)=O)NC(=O)[C@H](CCCNC(=N)N)NC1=O	VPS35/VPS29 (Homo sapiens, UniProt Q96QK1+Q9UBQ0)	binding, ITC	–	25 °C, heterodimer	–	ΔG	-9.8 ± 0.07 kcal/mol
CC(C)C[C@@H]1NC(=O)[C@H](C(C)C)NC(=O)CNC(=O)[C@H](CC(N)=O)NC(=O)[C@@H]2CCCN2C(=O)[C@H](Cc2ccc(O)cc2)NC(=O)[C@H](CCCNC(=N)N)NC(=O)[C@H](Cc2ccccc2)NC(=O)[C@@H](NC(=O)[C@H](CCCCN)NC(=O)[C@@H]2CCCN2C(=O)[C@H](C)NC(=O)[C@H](C)NC(=O)[C@@H](N)Cc2ccc(O)cc2)CSSC[C@@H](C(=O)N[C@H](C(N)=O)[C@@H](C)O)NC(=O)[C@H](C)NC1=O	Alpha-2-HS-glycoprotein, asialo (AHSG, Bos taurus, UniProt P12763)	ITC	–	concentration not given, together with: asialofetuin	–	binding enthalpy	-1.78 kcal/mol

Some of these lines once more:
Compound	target	assay	test system	conditions	how to read	endpoint	value
CC(C)C[C@@H]1NC(=O)[C@H](C(C)C)NC(=O)CNC(=O)[C@H](CC(N)=O)NC(=O)[C@@H]2CCCN2C(=O)[C@H](Cc2ccc(O)cc2)NC(=O)[C@H](CCCNC(=N)N)NC(=O)[C@H](Cc2ccccc2)NC(=O)[C@@H](NC(=O)[C@H](CCCCN)NC(=O)[C@@H]2CCCN2C(=O)[C@H](C)NC(=O)[C@H](C)NC(=O)[C@@H](N)Cc2ccc(O)cc2)CSSC[C@@H](C(=O)N[C@H](C(N)=O)[C@@H](C)O)NC(=O)[C@H](C)NC1=O	Alpha-2-HS-glycoprotein, asialo (AHSG, Bos taurus, UniProt P12763)	ITC	–	concentration not given, together with: asialofetuin	–	binding enthalpy	-1.78 kcal/mol
